# Published values of several laboratories.
# Every numbered part comes from another study and shows a few of its results, in no order. Substitutions count along the parent as printed.

# Block 1 — technique: universal PBM; molecule type: double-stranded DNA, one strand shown; matrix: in vitro; tested at: 600 nM; direction: higher = stronger binding
# Target: Sal-like protein 4, full length isoform A (SALL4, Homo sapiens, UniProt Q9UJQ4, residues 1-1053)
# Chain of UniProt Q9UJQ4 (whole entry, looked up): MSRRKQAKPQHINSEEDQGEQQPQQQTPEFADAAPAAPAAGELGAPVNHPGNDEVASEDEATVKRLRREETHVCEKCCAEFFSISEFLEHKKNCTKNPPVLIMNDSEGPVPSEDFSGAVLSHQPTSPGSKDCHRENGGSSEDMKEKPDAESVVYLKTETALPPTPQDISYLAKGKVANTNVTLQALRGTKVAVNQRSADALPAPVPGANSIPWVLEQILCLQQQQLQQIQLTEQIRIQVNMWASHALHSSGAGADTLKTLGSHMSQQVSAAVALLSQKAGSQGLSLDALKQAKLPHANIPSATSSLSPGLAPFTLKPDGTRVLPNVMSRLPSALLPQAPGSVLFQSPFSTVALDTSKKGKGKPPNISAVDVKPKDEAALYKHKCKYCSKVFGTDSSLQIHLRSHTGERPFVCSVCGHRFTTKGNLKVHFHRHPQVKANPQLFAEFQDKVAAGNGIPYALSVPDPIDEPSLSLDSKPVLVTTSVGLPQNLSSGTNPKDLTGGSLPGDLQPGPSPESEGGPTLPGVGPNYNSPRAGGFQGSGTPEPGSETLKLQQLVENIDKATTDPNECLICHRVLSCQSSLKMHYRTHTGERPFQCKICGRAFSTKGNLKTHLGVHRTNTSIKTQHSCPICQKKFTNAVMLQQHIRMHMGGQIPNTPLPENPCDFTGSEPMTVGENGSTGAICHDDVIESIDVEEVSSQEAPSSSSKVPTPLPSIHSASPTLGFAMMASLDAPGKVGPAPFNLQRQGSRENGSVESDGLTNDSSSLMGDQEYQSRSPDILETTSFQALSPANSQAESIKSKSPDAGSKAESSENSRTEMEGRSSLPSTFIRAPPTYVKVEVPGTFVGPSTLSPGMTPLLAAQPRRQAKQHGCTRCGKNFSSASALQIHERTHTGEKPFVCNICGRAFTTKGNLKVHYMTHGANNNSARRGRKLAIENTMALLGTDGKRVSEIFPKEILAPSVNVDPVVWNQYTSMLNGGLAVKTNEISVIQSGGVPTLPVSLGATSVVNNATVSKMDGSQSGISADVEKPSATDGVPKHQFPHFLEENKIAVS
# Setting: 8-mer, flanks averaged, mean of replicates
Sequence,E-score
ACTTGCCC,-0.154
ACTCATTG,0.0387
CCAAACCG,-0.319
GGATGAAC,-0.0415
CCAGACGC,-0.284
CTAACATA,0.245
AACCGCCA,-0.219
AATTCTGA,0.226

# Block 2 — technique: RNA Bind-n-Seq; molecule type: RNA; matrix: in vitro; tested at: 200 nM; setting: whole 134-nt RNA, ends assumed; added: 150 mM KCl; reference: input library; direction: higher = stronger binding
# Target: Fragile X messenger ribonucleoprotein 1, C-terminal low-complexity region (Fmr1, Mus musculus, UniProt P35922)
Sequence,log2 enrichment
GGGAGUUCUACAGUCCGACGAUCUCCUGUGCUACACAUCGUAUGUACCGAAUCGGCCCCCCGGGCCCCCCGGGCCCCCCGGGAAAGUAUUAUGUUACGCCGUUCGGAUCUGCAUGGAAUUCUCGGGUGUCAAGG,-0.737
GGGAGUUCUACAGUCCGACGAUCCUGUGCUACACAUCGUAUGUACCGAAUCGGGGUUUUUUUGGGUUUUUUUGGUUUUUUUGGGGAAAGUAUUAUGUUACGCCGUUCGGAUCUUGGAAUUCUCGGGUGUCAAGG,-0.188
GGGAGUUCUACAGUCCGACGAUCAGUCCUGUGCUACACAUCGUAUGUACCGAAUCGGGAGGGUUUUUGGGAAAAAAAGGGAAAGUAUUAUGUUACGCCGUUCGGAUCUGCACUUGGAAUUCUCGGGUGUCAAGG,0.164
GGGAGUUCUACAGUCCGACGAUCAGUGACCAUUUUAGUUAAAUUUUGUUCCUCUUCCCCCUUUUCACUUUCCUGGAAGAUCGAUGUCCCGAUCAGGAAGGUAGAGAGUUUUCCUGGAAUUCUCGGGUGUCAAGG,-0.0609
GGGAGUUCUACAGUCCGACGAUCGCAGGAAGUAAAAACAAAUGGAAAUGCUUCGGAUAGUGGCAGGGGUGGGGGUUGCUAAGGAGAGGGUGGGAUGGGAGUGGGUAAAGAGUUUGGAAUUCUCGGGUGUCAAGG,0.158
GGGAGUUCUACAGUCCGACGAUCCUCAAGUCCUGUGCUACACAUCGUAUGUACCGAAUCGGGAAGGGGAAGGGAAGGAAAGUAUUAUGUUACGCCGUUCGGAUCUGCACUUCCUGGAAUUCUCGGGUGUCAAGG,-0.158
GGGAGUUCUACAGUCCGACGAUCGUCCUGUGCUACACAUCGUAUGUACCGAAUCGGGGAGGGGAAAAAAAGGGGAAAGGGGAAAGUAUUAUGUUACGCCGUUCGGAUCUGCACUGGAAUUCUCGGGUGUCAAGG,0.442
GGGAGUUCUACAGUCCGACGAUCACCAUGCAGGUGGGCAUCUUUGGGAAGUGGGGCAAGGGGGGGAUAGGGAGGGGGGUAACACUUUGGGAACAGGUGGUUCCAGGUCGUUUCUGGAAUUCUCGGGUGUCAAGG,0.498

# Block 3 — technique: protein-binding microarray; molecule type: double-stranded DNA, one strand shown; matrix: in vitro; tested at: not given; direction: higher = stronger binding
# Target: Transcriptional repressor CTCF (CTCF, Homo sapiens, UniProt P49711, residues 1-727, full length assumed)
# Chain of UniProt P49711 (whole entry, looked up): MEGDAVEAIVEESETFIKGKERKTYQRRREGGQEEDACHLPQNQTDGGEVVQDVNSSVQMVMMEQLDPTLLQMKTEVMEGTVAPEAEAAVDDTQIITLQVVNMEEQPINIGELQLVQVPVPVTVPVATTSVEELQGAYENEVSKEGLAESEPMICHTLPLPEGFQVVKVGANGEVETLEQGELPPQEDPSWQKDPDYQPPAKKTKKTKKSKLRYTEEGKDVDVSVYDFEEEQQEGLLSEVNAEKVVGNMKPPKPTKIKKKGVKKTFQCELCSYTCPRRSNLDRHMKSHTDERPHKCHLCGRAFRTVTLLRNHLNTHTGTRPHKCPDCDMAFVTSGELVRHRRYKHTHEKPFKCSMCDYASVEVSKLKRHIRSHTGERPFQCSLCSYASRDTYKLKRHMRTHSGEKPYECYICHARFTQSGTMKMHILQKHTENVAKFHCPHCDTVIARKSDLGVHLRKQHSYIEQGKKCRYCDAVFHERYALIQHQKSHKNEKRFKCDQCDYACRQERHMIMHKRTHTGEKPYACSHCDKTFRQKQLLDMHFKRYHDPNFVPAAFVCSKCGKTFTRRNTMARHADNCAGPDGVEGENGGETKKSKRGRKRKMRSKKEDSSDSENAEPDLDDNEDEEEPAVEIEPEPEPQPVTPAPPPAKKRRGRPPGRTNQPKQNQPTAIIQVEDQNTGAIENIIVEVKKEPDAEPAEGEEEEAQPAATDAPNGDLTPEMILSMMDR
# Setting: k-mer, scored over probes, only values ≥0.25
Sequence,E-score
AGTAAAAT,0.269
ACATGTAT,0.379
CGTACATA,0.275
ATACCATC,0.273
AATACGTA,0.293
GCGCTTTA,0.353
ATAACGAA,0.29
ATCGCGCA,0.252

# Single results of other studies
# Parent: viral docking peptide; YKVKRRLVFGADD; partner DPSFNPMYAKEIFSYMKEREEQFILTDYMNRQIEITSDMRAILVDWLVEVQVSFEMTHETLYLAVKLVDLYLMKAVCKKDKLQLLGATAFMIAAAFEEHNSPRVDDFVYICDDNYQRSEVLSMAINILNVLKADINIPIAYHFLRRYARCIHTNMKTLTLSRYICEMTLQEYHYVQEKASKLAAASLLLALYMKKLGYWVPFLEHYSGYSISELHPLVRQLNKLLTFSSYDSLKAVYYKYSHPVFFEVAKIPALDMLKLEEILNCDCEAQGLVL
Variant,target,assay,test system,setting,scale,endpoint,result
A11C,"CCNB3, cyclin fold, Cln2 fusion (human)","yeast growth competition, sequencing",yeast,strong parent motif,"reference: not given, higher = stronger binding",normalised enrichment score,1.74

# A few entries again (block 2):
Sequence,log2 enrichment
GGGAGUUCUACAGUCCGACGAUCAGUCCUGUGCUACACAUCGUAUGUACCGAAUCGGGAGGGUUUUUGGGAAAAAAAGGGAAAGUAUUAUGUUACGCCGUUCGGAUCUGCACUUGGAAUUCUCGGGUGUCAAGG,0.164
